Results pooled from the literature.
Parts stem from different laboratories: compare values within a part only. Substitutions count along the parent as printed.
UniProt P43403, sequence (whole entry, looked up): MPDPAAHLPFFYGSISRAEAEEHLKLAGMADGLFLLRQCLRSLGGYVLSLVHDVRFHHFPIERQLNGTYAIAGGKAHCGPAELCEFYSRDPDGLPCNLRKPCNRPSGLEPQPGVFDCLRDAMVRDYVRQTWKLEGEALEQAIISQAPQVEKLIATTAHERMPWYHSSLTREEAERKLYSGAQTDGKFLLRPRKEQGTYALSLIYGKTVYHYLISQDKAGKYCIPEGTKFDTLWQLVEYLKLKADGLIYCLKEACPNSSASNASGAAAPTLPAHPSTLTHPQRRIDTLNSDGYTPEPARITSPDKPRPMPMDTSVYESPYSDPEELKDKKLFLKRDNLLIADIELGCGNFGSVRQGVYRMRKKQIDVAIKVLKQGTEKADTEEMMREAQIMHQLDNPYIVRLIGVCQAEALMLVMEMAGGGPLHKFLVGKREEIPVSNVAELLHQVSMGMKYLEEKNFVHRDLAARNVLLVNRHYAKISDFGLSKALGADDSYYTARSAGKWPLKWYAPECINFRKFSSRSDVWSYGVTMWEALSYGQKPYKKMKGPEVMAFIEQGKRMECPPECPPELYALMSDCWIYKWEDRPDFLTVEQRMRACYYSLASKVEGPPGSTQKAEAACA
UniProt Q13131, sequence (whole entry, looked up): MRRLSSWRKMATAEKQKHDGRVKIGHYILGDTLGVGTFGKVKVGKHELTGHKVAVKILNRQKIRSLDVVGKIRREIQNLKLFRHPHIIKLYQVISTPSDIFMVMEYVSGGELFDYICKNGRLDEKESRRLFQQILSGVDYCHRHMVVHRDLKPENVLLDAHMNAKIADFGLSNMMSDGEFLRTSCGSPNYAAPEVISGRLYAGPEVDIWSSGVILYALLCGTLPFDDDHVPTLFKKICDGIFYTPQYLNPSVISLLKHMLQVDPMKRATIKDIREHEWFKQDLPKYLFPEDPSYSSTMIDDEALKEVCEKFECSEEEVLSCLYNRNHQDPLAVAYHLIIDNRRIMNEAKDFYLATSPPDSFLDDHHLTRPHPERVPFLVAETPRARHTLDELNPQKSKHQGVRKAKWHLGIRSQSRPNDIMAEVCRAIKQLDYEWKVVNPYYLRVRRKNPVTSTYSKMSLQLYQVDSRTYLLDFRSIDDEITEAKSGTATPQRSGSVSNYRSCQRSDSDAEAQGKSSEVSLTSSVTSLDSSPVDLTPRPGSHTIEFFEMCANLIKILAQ
UniProt P45983, sequence (whole entry, looked up): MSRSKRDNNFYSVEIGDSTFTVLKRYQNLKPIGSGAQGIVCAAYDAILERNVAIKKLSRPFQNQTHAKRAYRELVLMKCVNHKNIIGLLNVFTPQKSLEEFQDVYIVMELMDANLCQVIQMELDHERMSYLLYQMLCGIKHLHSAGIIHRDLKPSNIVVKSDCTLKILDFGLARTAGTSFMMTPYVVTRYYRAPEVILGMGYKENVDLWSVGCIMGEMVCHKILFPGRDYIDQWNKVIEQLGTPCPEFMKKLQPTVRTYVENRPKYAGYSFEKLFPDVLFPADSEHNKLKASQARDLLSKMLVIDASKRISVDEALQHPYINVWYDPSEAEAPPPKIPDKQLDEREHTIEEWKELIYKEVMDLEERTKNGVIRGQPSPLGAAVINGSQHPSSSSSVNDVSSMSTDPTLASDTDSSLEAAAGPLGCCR
UniProt P10721, sequence (whole entry, looked up): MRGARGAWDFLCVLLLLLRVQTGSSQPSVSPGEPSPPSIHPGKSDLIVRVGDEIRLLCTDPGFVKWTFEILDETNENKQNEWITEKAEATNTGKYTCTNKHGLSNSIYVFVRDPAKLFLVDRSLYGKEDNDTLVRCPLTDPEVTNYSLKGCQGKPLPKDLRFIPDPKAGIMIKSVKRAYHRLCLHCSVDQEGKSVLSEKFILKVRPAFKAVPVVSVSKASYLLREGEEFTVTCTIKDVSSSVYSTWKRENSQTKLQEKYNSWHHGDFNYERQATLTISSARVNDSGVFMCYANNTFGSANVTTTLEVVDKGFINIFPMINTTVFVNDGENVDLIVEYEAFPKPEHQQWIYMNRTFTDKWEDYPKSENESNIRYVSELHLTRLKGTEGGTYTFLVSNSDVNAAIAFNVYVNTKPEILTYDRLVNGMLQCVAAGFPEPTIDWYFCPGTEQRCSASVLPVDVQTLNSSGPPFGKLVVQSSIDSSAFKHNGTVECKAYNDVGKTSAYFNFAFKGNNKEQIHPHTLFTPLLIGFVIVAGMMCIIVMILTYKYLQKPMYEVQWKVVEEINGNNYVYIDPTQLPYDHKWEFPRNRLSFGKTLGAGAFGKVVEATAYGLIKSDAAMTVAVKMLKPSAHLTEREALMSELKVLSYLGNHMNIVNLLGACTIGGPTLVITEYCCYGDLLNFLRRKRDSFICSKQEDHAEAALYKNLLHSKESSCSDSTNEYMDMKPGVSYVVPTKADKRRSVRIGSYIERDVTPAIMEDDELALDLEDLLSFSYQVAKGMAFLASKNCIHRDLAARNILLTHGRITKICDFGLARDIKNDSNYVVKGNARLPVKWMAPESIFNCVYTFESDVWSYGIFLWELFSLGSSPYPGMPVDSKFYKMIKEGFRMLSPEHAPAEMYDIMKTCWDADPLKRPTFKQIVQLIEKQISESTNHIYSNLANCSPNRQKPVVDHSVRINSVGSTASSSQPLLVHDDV

Series 1 — read-out: enzyme activity; action: inhibitor; tested at: 0.5 µM; relative to: control
Target: Cyclin-dependent kinase 2, with cyclin E (CDK2, Homo sapiens, UniProt P24941)
| Structure (SMILES) | remaining activity |
| --- | --- |
| Cn1sc(=O)n(Cc2ccccc2)c1=O | 95.1% |
| C#Cc1cccc(Nc2ncnc3cc(OCCOC)c(OCCOC)cc23)c1 | 96.5% |
| O=c1c2ccccc2[nH]c(=S)n1CCN1CCC(=C(c2ccc(F)cc2)c2ccc(F)cc2)CC1 | 97.3% |
| O=C(CCCc1ccc(-c2ccccc2F)cc1)Nc1ccc(O)cc1 | 91.9% |
| NCCNc1ncc(C(N)=O)c(Nc2cccc(C(F)(F)F)c2)n1 | 89% |
| COc1ccc(OC)c2c(=S)c3ccccc3[nH]c12 | 77.9% |
| O=C(Nc1cccc(Nc2cc(Nc3cccc(C(F)(F)F)c3)ncn2)c1)C1CC1 | 96.7% |
| CO[C@H]1C[C@@H]2CC[C@@H](C)[C@@](O)(O2)C(=O)C(=O)N2CCCC[C@H]2C(=O)O[C@H]([C@H](C)C[C@@H]2CC[C@@H](O)[C@H](OC)C2)CC(=O)[C@H](C)/C=C(\C)[C@@H](O)[C@@H](OC)C(=O)[C@H](C)C[C@H](C)/C=C/C=C/C=C/1C | 91.3% |
| CCOC(=O)c1c(C)[nH]c(/C=C2\C(=O)Nc3ccccc32)c1C | 95.6% |
| Cn1c2ccccc2c2c3c(c4c5ccccc5n(CCC#N)c4c21)CNC3=O | 27.8% |
| Nc1ccc2ncnc(NCCc3ccc(Oc4ccccc4)cc3)c2c1 | 95% |
| Nc1[nH]nc2nc3ccccc3nc12 | 85.5% |
| COc1cc2ncnc(Nc3ccc(Oc4ccccc4)cc3)c2cc1OC | 87.8% |
| CNC(=O)c1cc(Oc2ccc(NC(=O)Nc3ccc(Cl)c(C(F)(F)F)c3)cc2)ccn1 | 98.2% |

Series 2 — organism: Plasmodium berghei; action: inhibitor; cells: Huh-7; strain: GFP-expressing, liver stage; tested at: 10 µM; time: 24 h; relative to: untreated control
| Compound | infection rate |
| --- | --- |
| CCCCC(=O)N(Cc1ccc(-c2ccccc2-c2nnn[nH]2)cc1)[C@H](C(=O)O)C(C)C | 89.2% |
| O=C1C(O)=C(O)C(=O)C(O)=C1O | 92% |
| CN(C(=O)CN(CCO)CC(=O)N(C)C(C)(C)Cc1ccccc1)C(C)(C)Cc1ccccc1 | 45.3% |
| NC(=O)c1ncn([C@@H]2O[C@H](CO)[C@@H](O)[C@H]2O)n1 | 104% |
| CC1=C(C/C=C(\C)CCC[C@H](C)CCC[C@H](C)CCCC(C)C)C(=O)c2ccccc2C1=O | 100% |
| N=C(N)NS(=O)(=O)c1ccc(N)cc1 | 101% |

Series 3 — read-out: cell-free assay; method: competition with immobilised ligand; tested at: 1 µM
SMILES: COc1ccc2cc(OCC3(C(=O)O)CN(C(=O)c4ccc(F)cc4)C3)ccc2c1
| target | remaining binding [%] |
| --- | --- |
| 5'-AMP-activated protein kinase catalytic subunit alpha-1 (PRKAA1, Homo sapiens, UniProt Q13131) | 100 |
| Tyrosine-protein kinase ZAP-70 (ZAP70, Homo sapiens, UniProt P43403) | 99 |
| Mast/stem cell growth factor receptor Kit, autoinhibited (KIT, Homo sapiens, UniProt P10721) | 100 |
| Mitogen-activated protein kinase 8 (MAPK8, Homo sapiens, UniProt P45983) | 76 |

Series 4 — target: BATF3, bZIP domain (human); method: DHFR protein complementation; sample: yeast; relative to: wild-type JUN-FOS pair; reading: higher = stronger binding
Notes: single substitutions, most at no-binding floor
Starting sequence: JUN, bZIP domain (human); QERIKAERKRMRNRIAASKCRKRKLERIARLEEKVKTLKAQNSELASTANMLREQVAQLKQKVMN; partner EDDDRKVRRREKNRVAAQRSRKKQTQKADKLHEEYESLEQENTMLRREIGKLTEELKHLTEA
| Substitution | binding fitness [natural log] |
| --- | --- |
| E44D | 0.046 |
| E54P | -0.537 |
| N42K | 0.114 |
| Q55M | 0.0703 |
| L31V | 0.21 |
| L52H | -0.484 |
| R30T | 0.349 |
| K36N | 0.163 |

Further values, each from its own experiment
| Compound | host | dose | notes | quantity | value |
| --- | --- | --- | --- | --- | --- |
| CC(C)n1cnc(-c2ccc(F)cc2)c1-c1ncc(C(=O)Nc2ccc(N3CCN(C)CC3)cc2)[nH]1 | human, idiopathic pulmonary fibrosis | 30 mg once daily | trial, treatment-emergent | patients with IPF worsening | 0% |
